Measurements from different studies.
Compare with care: the assays were run in different laboratories. “And” joins repeats or separate records; there may be more than shown.
Sample: plasma

| Compound | species | route | dose | setting | bioavailability |
| --- | --- | --- | --- | --- | --- |
| CC12CC3CC(C)(C1)CC(NC(=O)Nc1ccc(C(=O)N4CCCC(C(N)=O)C4)cc1)(C3)C2 (stereo not drawn) | Sprague-Dawley rat | oral | 10 mg/kg | – | 3.1% |
| COc1ccc2c(c1OCc1ccccc1)C[C@@H](C(=O)O)N(c1nc3ccc(C#N)cc3o1)C2 | male Sprague-Dawley rat | oral | 10 mg/kg | – | 47% |
| Cc1cc(N)nc(CC2CNCC2OCCNCC(F)(F)c2cccc(F)c2)c1 (stereo not drawn) | rat | oral | – | – | 22.2% and 22% |
| C=C(C)C(=O)Nc1ccc(-c2c(-c3ccc(Oc4nccc(C)n4)cc3)c3c(N)ncnc3n2C)cc1 | Sprague-Dawley rat | oral | – | – | 17% |
| CNC(=O)N[C@]1(C)CCC[C@@]2(C)C3CC[C@@]4(C)C[C@]3(CCC21)CC4=O (single isomer, unassigned) | male Sprague-Dawley rat | oral | 2 mg/kg | – | 6.53% |
| CCOP(=O)(CC(=O)Nc1ccc(S(=O)(=O)N(CC(N)=O)c2ccc(N(CC(N)=O)S(=O)(=O)c3ccc(OC)cc3)c3ccccc23)cc1)OCC | male Wistar rat | oral | 28 mg/kg | single dose | 4.01% |
| OC1(C(F)(F)F)CCN(c2nc(Nc3ccnc(C(F)(F)F)c3)nc(-c3cccc(C(F)(F)F)n3)n2)C1 (stereo not drawn) | Sprague-Dawley rat | oral | 5 mg/kg | – | 113% |
| C#Cc1cccc(Nc2ncnc3cc(OC)c(OCCCN4CCOCC4)cc23)c1 | Sprague-Dawley rat | oral | 40 mg/kg | – | 86.2% |
| Cc1ccc(OCC(=O)N(Cc2cccs2)c2ccn[nH]2)cc1 | male Sprague-Dawley rat | oral | 30 mg/kg | single dose | 0.09% |
| Cc1cc(/C=C/C#N)cc(C)c1Oc1nc(NC2CCN(Cc3ccc(P(C)(C)=O)cc3)CC2)nc2ccsc12 | male Sprague-Dawley rat | oral | 10 mg/kg | – | 40.8% |
| N#Cc1cnc2cc(OCC3CCNCC3)c(F)cc2c1Nc1cc(F)c(OCc2cccc(Cl)n2)cc1Cl | male Sprague-Dawley rat | oral | 30 mg/kg | – | 20% |
| COc1cc2ncnc(Oc3ccc(Nc4nccc5[nH]cc(-c6ccc(F)cc6)c(=O)c45)cc3F)c2cc1OC | male Sprague-Dawley rat | oral | – | – | 57% |
| COc1ccc2c(c1OCc1ccccc1)C[C@@H](C(=O)O)N(c1nc3ccc(F)cc3o1)C2 | male Sprague-Dawley rat | oral | 10 mg/kg | – | 36% |
| Cc1cc(N2CCC(C#N)(C3(C)CC3)C2=O)cc(C(=O)NCc2cc(F)cc(-c3cnn(C)c3)c2)n1 (racemic) | male Sprague-Dawley rat | oral | 3 mg/kg | – | 37% |
| CC(C)(C)C(=O)Nc1ccc2[nH]c(CN3CCC(N(CCCN4CCOCC4)CC4OC(n5cnc6c(N)ncnc65)C(O)C4O)CC3)nc2c1 (stereo not drawn) | male Sprague-Dawley rat | intraperitoneal | 20 mg/kg | – | 97.2% |

A few entries again:
| Compound | species | route | dose | setting | bioavailability |
| --- | --- | --- | --- | --- | --- |
| CCOP(=O)(CC(=O)Nc1ccc(S(=O)(=O)N(CC(N)=O)c2ccc(N(CC(N)=O)S(=O)(=O)c3ccc(OC)cc3)c3ccccc23)cc1)OCC | male Wistar rat | oral | 28 mg/kg | single dose | 4.01% |
